Results of several laboratories.
Every numbered part comes from another study and shows a few of its results, in no order.

Sample 1
Target: RNA binding protein fox-1 homolog 2, RRM domain, GST-SBP tag (RBFOX2, Homo sapiens, UniProt O43251-10, residues 100-194)
Technique: RNA Bind-n-Seq
Form: RNA
Medium: in vitro
Tested at: 365 nM
Setting: natural RNA segment, single round, ends assumed
Baseline: no-protein control
Reading: higher = stronger binding
Target sequence (chain): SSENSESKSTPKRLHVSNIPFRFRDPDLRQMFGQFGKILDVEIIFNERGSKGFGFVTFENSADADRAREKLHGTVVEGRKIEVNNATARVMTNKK
| Sequence | RBNS enrichment (R) |
| --- | --- |
| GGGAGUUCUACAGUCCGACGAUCAUCUUCAAUAUGAAGACAUGAGCUUUUCUCGCAGGAAAUUUUCUUUUUCACAGAACUGGUGUCAGGAAUCACUGAAGGGCUAACCGUGAUAGUCCUUGCAAGUAAGUCAAUGGAAUUCUCGGGUGCCAA | 0.353 |
| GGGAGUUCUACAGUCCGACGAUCCUCAGUAGCAGGACCUGCCCCGAGCCCCCUGCUCCUUGCCCCUCUGUGAGGAGUUACGGAGAGGGCUUUGUCUCUAGAGCAGAAGAGAAUGAUGGGACGGCCUGAUGCUGUGGAAUUCUCGGGUGCCAA | 1.73 |
| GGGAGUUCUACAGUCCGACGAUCUUACACGUCCCCUGGGUGGACCUCCCUGCUGCAGGCACCAUACCUGCGAUGGUGUACAGGGCUGUGAUGCCGAGCGUGAGGAUGGUGGAGAGGUAGAAGUUCCAGCCCAGUGGAAUUCUCGGGUGCCAA | 0.865 |
| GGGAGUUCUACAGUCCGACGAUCGAGCUUGAAGGUGAGGCCUGAGGGGCCACAGAUGAGUCAUGUUUUAGUGCUGAUGACAGAGGGGCCGGUCGCAUGGGAUGAGGCUCGGUGGGCCUCUUGCUUGUUGUCUCUGGAAUUCUCGGGUGCCAA | 8.3 |
| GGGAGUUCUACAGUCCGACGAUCUACUCUCACUGUAAUUUAUGGACCCUGCCCGCCUGCGUGUUGUGUGUAUGUCCUGUGCCUUUUCUCACUAUUGUUUGGGUGUGGGAGGGGGUGGUUUUUCACUGAAAAGGUGGAAUUCUCGGGUGCCAA | 4.02 |
| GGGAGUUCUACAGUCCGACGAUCGCCCUACAGCUGCCCCGAGUGUGGCAAGUGCUAUAGCCAGAACUCGUCCCUGCGCAGUCACCAAAGGGUGCACACUGGGCAACGGCCUUUCAGCUGUGGCAUCUGUGGCAUGGAAUUCUCGGGUGCCAA | 6.54 |
| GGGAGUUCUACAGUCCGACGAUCCUUGGGUUGAGCCUGUGACUUGGUUUCUCUUUGUCCUUUUGGAAAAAUGACAAGCAUUGCAUCCCAGUCUUGUGUUCCGAAGUCAGUCGGAGUACUUGAAGAAGGCCCACUGGAAUUCUCGGGUGCCAA | 0.464 |
| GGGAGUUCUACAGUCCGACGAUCGCUGAUCCUCAGGGGCCACUCCCCCAACACCCCUGUACUUGGGUGAGGGAUGUUGGACAGAGCCUGUUUUCAUGUACUGCAGGUGGGGGUGUGCUGACAUGUUUGCUCUUUGGAAUUCUCGGGUGCCAA | 0.4 |
| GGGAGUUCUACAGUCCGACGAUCUUGUAUUCCAAACGUGUUUACAGGUUCUCUUAAGCAAUGUUGUAUUUGCAGGCUUUUCUGAAUACCAAAUCUGCUUUUUGUAAAGCGUAAAAACAUCACAAAGUAGGUCAUGGAAUUCUCGGGUGCCAA | 0.32 |

Sample 2
Target: Hepatocyte nuclear factor 3-alpha (Foxa1, Mus musculus, UniProt P35582, residues 1-468, full length assumed)
Technique: EMSA with sequencing
Form: double-stranded DNA, one strand shown
Medium: in vitro
Tested at: 10 and 20 nM
Setting: whole designed probe, mean of two concentrations, ends assumed
Baseline: negative control set to 0
Reading: higher = stronger binding
Residues (chain): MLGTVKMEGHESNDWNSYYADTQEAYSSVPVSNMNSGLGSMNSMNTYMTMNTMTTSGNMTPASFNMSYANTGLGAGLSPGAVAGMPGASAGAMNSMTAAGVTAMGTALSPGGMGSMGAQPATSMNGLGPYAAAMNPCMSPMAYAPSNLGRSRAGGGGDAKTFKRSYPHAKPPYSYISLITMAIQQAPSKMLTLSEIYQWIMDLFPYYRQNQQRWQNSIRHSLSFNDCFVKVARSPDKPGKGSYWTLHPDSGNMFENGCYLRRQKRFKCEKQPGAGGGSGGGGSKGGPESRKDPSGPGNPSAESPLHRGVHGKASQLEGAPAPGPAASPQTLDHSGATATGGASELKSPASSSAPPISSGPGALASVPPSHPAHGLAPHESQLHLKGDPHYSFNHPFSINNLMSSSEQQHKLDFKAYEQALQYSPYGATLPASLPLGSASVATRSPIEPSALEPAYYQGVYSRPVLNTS
| Sequence | normalised bound fraction [ratio] |
| --- | --- |
| GTGAGCGGTGCCCATTGATGGGGAACTTTCAGTAGGTGGTAGTGGGTTCAGGAAATCTGTGTTTTTACCAAAGTATCCCCTACTATAGAATTAATTTTTGTGTTCCCCCCTCATTCATATGTTGACATTTAAACCTCCACTGTGATGATACCAGGTGGCTTTGGGAGGTGATTAGGTGATAACGATGAAGCCCTCATAAATGTGATTACTGACCTAATATTTCACTGGGATCGTGGGGAC | 0.128 |
| GTGAGCGGTGCCCATTGATGGGGAACATCTTCCCCCTCTTCCTTGCCCCACCAGCTCACCTTCCCGGGTTATTTGCACAAAGGAAAATAAATAAAGCCGGCATTCGTTAACCCTCTTCTGGCGCAAACTGCTGTTTGCTCTGCATGAATCATGGTCCTTACGCGAGGCGTGGCTCCGGGAGAGCAAAGCACCGTGTCAGGCGCATGATCCGGGCTCGCCTTTCACTGGGATCGTGGGGAC | 0.382 |
| GTGAGCGGTGCCCATTGATGGGGAACCAGGAGCCTAGCCCTGTCTTTCCTCTGAGAGAAATGGTTTAGTACTTGCTAATTCCATGTTTCTGGCAACTTTATAGAACATAACTCCACAAAGTAAACAAGAATTGATTGTAATTCACTGACAGCTCACAAATCTCCATTCCAGAGAGACTTTCCCTGACTTCTGTATTTAAAGCAGCACGACCCCTCCCCTTTTCACTGGGATCGTGGGGAC | 0.447 |
| GTGAGCGGTGCCCATTGATGGGGAACTAGAGAAAGAAAAGAGAAACCAGGAATAATCAGTGAATGATAAGCAAGTAACATGGTTTAAAAGCATTCCAGGAGTTCCATTTTTAAGCACTCTTGTTTACTTAGTTTTGCTACCCACTTGTTGCTTTGGAAGAGTTTCTATTAATTAGATGTCATTTTTCAAAAGTGCGTACTTAATTGTTATATGAATTACTTTCACTGGGATCGTGGGGAC | 0.438 |

Sample 3
Target: Prothrombin, mature alpha-thrombin (F2, Homo sapiens, UniProt P00734)
Technique: aptamer microarray, sandwich
Form: DNA with 2'F-ANA
Medium: in vitro
Tested at: 200 nM
Setting: whole 15-mer aptamer, many near background
Together with: Cy3 exosite-II aptamer, 400 nM
Reading: higher = stronger binding
Sequence: GGTTGGTGTGGTTGG
| Modification | mean fluorescence intensity [a.u.] |
| --- | --- |
| 2'F-ANA at 1 5 6 8 9 10 11 13 | 47.7 |
| 2'F-ANA at 4 6 7 9 10 11 | 80.2 |
| 2'F-ANA at 1 2 3 5 7 8 10 11 12 15 | 53.3 |
| 2'F-ANA at 6 7 11 12 13 14 | 198 |
| 2'F-ANA at 4 5 7 8 9 12 13 14 | 72.9 |
| 2'F-ANA at 1 2 3 5 7 8 11 12 13 | 79.8 |
| 2'F-ANA at 2 3 4 5 8 9 11 13 15 | 61.7 |
| 2'F-ANA at 1 7 11 13 | 150 |
| 2'F-ANA at 1 2 4 5 6 9 10 12 13 15 | 56.3 |
| 2'F-ANA at 2 4 6 9 10 11 12 14 | 60.7 |
| 2'F-ANA at 1 4 6 7 8 9 10 11 12 13 14 15 | 69.1 |
| 2'F-ANA at 2 3 8 10 14 | 269 |
| 2'F-ANA at 1 6 7 9 10 15 | 54.3 |
| 2'F-ANA at 1 4 5 6 7 10 | 76.8 |
| 2'F-ANA at 1 4 5 7 14 15 | 48.2 |
| 2'F-ANA at 8 9 10 12 13 14 15 | 121 |
| 2'F-ANA at 2 4 5 6 8 15 | 145 |
| 2'F-ANA at 1 3 4 5 6 7 11 12 14 15 | 50 |
| 2'F-ANA at 2 3 4 5 6 7 8 12 15 | 218 |
| 2'F-ANA at 2 3 4 5 6 7 8 10 11 12 13 14 | 60.1 |
| 2'F-ANA at 1 2 4 6 7 9 12 13 15 | 134 |
| 2'F-ANA at 1 2 3 7 8 12 15 | 569 |
| 2'F-ANA at 2 4 6 7 9 10 12 | 147 |
| 2'F-ANA at 1 2 4 6 7 10 12 13 14 15 | 67.1 |
| 2'F-ANA at 1 2 4 6 7 8 9 10 11 13 | 54.2 |

Sample 4
Target: Centromere-binding protein 1, full length, N-terminal tag (CBF1, Saccharomyces cerevisiae, UniProt P17106, residues 1-351)
Sequence of UniProt P17106 (whole entry, looked up): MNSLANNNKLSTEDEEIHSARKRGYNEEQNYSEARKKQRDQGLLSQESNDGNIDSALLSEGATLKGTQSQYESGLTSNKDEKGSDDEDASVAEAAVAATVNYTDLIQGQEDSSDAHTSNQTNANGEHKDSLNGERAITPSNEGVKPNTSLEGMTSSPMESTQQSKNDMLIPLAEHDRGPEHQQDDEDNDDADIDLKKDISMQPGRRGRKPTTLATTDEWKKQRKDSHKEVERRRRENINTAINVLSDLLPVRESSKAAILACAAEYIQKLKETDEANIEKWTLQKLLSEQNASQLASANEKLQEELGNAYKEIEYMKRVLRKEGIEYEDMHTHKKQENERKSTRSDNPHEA
Technique: protein-binding microarray
Form: double-stranded DNA, one strand shown
Medium: in vitro
Tested at: 0.8 µM
Setting: whole 60-bp probe, no competitor
Reading: higher = stronger binding
| Sequence | fluorescence intensity |
| --- | --- |
| GAAACGTTACGGCGACACGTTATCATCAAACGCTAGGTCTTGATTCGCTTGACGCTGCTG | 672 a.u. |
| TGTACGAAGCTATAATGGGTGATTATAGTAGTTAGGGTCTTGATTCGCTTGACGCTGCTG | 529 a.u. |
| CTAAAAAAAAATACTCCATCAGCGTTAGCGGAATTCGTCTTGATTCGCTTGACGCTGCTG | 503 a.u. |
| CTATAGTGGCGGTATCTCCTGTGCCTTCCCCCGTTCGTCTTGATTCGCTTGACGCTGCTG | 478 a.u. |
| GAACGGATCATCCACCACGAACCCCTATCCTTTTAGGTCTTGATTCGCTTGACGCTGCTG | 503 a.u. |
| CTACACCAATGTTGCAGCGTGATTTAATTTTGATTCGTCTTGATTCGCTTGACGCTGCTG | 952 a.u. |
| CTATTGCTGAATAGTCACGTTGATGAGCACGAATTCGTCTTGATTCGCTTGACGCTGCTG | 2090 a.u. |
| GAATAAATCCTGAGGAACGTGACACATAAAGTTTAGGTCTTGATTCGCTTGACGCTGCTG | 2530 a.u. |
| GAATTCTGTTACCCGCTCGTGATACCTGACGACTAGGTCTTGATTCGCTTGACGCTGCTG | 909 a.u. |
| TGTACGAAGCTATACCACCACACTATAGTAGTTAGGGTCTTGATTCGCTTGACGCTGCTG | 545 a.u. |
| CTAATGTACATAAGTCACGTTTTTGCAGCCAATTTCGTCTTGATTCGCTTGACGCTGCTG | 2940 a.u. |
| GAAGAAAAACATCAGGTGGCGATTAATGAAAGATAGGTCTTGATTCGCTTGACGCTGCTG | 1230 a.u. |
| GAATTCATTGTCTATCAGGAGAAGAGATCGTATTAGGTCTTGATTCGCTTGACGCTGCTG | 545 a.u. |
| TGTACGAAGCTATATCACAACAGTATAGTAGTTAGGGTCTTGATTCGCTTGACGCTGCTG | 583 a.u. |
| GAAACGTAACGTTGTCACGTCCACAGAAGATGCTAGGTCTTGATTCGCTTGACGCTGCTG | 679 a.u. |
| GAAGTTAATAAACCACACGTTGGTTATTTAGATTAGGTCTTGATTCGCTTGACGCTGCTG | 535 a.u. |
| GAATGTATCTTGAATTTCGTGTCACACACTCTTTAGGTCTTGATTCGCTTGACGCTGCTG | 904 a.u. |

Excerpt of the above (sample 3):
| Modification | mean fluorescence intensity [a.u.] |
| --- | --- |
| 2'F-ANA at 6 7 11 12 13 14 | 198 |
| 2'F-ANA at 4 5 7 8 9 12 13 14 | 72.9 |
| 2'F-ANA at 1 2 3 5 7 8 11 12 13 | 79.8 |
| 2'F-ANA at 2 3 4 5 8 9 11 13 15 | 61.7 |
| 2'F-ANA at 1 7 11 13 | 150 |
| 2'F-ANA at 1 2 4 5 6 9 10 12 13 15 | 56.3 |
